Experimental data gathered from unrelated publications.
Each numbered part is a random draw from the data of one study; scales do not carry over between parts. Positions count from the first letter of the parent shown.

Set 1
Target: ABI1, truncated, D143A, DHFR fusion (Arabidopsis thaliana)
Technique: DHFR PCA, deep sequencing
Matrix: yeast
Setting: methotrexate growth selection, single substitutions
Added: (+)-ABA 17 µM
Reference: wild-type fitted maximum
Reading: higher = stronger binding
Starting sequence: PYL1, truncated, DHFR fusion (Arabidopsis thaliana); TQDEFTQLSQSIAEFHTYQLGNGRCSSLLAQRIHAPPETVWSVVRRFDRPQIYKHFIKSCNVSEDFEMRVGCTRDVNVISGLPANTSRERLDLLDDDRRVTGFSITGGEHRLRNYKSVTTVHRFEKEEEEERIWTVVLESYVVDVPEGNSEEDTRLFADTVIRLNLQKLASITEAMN
Change | relative binding score [%]
R90A | 26.7
Y141E | -2.97
A13H | 78
N85Q | 83.7
L169E | 6.43
Q7H | 80.2
Y18L | 45.6
V136T | 62.1
L29S | 30.4
C72M | 80.3
E109V | 66
V145W | -2.26
G102E | -1.94
T101I | 94.9
W41E | -4.24
D153R | -1.79
Q2P | 83.9
I12F | 21.6
H55A | 97.3
E130F | 76.1

Set 2
Target: RNA binding protein fox-1 homolog 2, RRM domain, GST-SBP tag (RBFOX2, Homo sapiens, UniProt O43251-10, residues 100-194)
Technique: RNA Bind-n-Seq
Molecule type: RNA
Matrix: in vitro
Tested at: 365 nM
Setting: natural RNA segment, single round, ends assumed
Reference: no-protein control
Reading: higher = stronger binding
Construct (chain): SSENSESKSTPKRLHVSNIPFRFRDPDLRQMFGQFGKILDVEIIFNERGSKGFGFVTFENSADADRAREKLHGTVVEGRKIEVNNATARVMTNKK
Sequence | RBNS enrichment (R)
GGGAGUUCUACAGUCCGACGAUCAUCCCUUGCCUCCAUGUGUUUCUAUGCAGCCAUAGUUUGAGGACAGCCAGGCACCCACCUCAGGACAAGUUCAGGAAGGGAAGACAGUGGACUGUACGGGACCUGGUGUGUGGAAUUCUCGGGUGCCAA | 0.825
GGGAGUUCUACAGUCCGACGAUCGUUUGCUGGUCCUCAAACAGGCACUGAAAUCUCAGUAUGGGUAUACGAUUUAAUAAUCGGCCCCUCCCUUCUAUUUGUCGGUUUUAUGUUUCUAUCCUUCAAUAGCUGCAUGGAAUUCUCGGGUGCCAA | 1.55
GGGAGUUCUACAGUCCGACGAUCACCAAACUCAGUCACUCCACCUCAGUCAUGACCUGAUAUAAAAGCCGUGCUAGUUUCCCGAGUUCAGACUCUCAGCUUUGGUUUGGUUUUGGUUUUGGUUUUUUGUUCUUUGGAAUUCUCGGGUGCCAA | 0.471
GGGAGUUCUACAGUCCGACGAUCAUCUACAUAGCUUUCUCUCUCCAGUGCCUCUACUACGUGAGGGAGGCCCAUGGCAUUGUGGUGACGGAUGUGGCCUUUCUACCUGAGAAGGGUCGUGGUCCAGAGCUCCUUGGAAUUCUCGGGUGCCAA | 0.23
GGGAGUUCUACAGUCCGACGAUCGGGCCCCUCCUGCAGCGAGGAUGGGAGGGGGUGCUGAGCUGUGAAUCCCCUGGGCAGGGGGCGACAACUCCGUGUAGCAUUAACCCCCGUGGCGGGGUCCGCUGCUGGUCUGGAAUUCUCGGGUGCCAA | 1.06
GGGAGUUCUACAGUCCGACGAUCUAUUCAGUGUUUAUUUCCUUAAACAGACUUUGUUAAUUUAGGAAAUAUCUCCAAGUGGAAACGUGCUAACUUUCUGUAAAUCUUAAAUAAAAGGUGCUGUUCCUUCCUCUUGGAAUUCUCGGGUGCCAA | 0.193
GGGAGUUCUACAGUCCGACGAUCUAAUUAAAAUUCUGUUGAAGAAGAUAAAGUUUCAGAUAUGCCACUGGCUUGAGGAUUAGCUAAAGGUCUGUGUUUUCACAGCAGGAGUUAAUGUGCAGAGUUAACUGAACUGGAAUUCUCGGGUGCCAA | 0.484
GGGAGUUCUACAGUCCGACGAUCAGAGACAAAGACAAAGACUGCCUGCCUUGGAGGGUCACUGAGGGAGACCUGUGCCUGAUUUCAUUAGGAAAUCCAUUCUGUUAUUUUUUUUUGGUGCUGUUGGCUACUUUUGGAAUUCUCGGGUGCCAA | 0.938
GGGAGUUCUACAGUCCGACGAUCUCUGCCUUCCAGGUUGAAGAGGUUCUCCUGCCUCAGCCUCCUUAGUAGUGGGAUUACAGGUGCCCGCUACUAUGCCCGGCUAAUUUUUCUUUUGGUAUUUUUAGUAGAAAUGGAAUUCUCGGGUGCCAA | 0.46

Set 3
Target: RING finger protein unkempt homolog, zinc fingers 1-6, GST-SBP tag (UNK, Homo sapiens, UniProt Q9C0B0, residues 30-357)
Technique: RNA Bind-n-Seq
Molecule type: RNA
Matrix: in vitro
Tested at: not given
Setting: RNA with constant flanks, human-mouse chimeric sites, ends assumed
Reference: input RNA pool
Reading: higher = stronger binding
Construct (chain): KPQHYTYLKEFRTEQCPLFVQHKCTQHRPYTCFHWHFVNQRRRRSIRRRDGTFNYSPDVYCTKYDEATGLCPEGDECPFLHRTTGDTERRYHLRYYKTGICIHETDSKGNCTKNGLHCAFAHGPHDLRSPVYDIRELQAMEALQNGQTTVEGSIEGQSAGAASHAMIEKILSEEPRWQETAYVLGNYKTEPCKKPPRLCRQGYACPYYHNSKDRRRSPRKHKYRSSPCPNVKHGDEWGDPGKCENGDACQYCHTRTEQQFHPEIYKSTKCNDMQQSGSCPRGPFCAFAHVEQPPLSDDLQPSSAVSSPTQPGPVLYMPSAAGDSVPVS
Sequence | bound/input enrichment [ratio]
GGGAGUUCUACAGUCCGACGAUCUAACCACAUCAAGAUGGUUGGGAAGCUGAAGCAGAACUUACUAUUGGCAUGUCUGGUGAUUAGUUCUGUGACCGUGUUUUACCUGGGCCAGCAUGCCAUGGAGUGCCAUCACCGAAUAGACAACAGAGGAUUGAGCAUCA | 0.232
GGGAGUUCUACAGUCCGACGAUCGCAAAGGAUGAUGAGGCGGCAGCUGUUGCCCUUUCCUCUCUCGUUCAUGCUUUGGAUGACUUAGACAUGGUGGCCAUCGUCCGAUAUGCUUAUGACAAAAGAUCUAAUCCUCAAGUUGGUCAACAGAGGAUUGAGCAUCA | 0.233
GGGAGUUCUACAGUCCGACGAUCCGCUUGGAUGAGGCGGGUGUCACAGAUGAAGUGCUAGAUUCUGCCAUGCAAGCCUUCCUUCUGGAGGUCAUUGUUAAGCAUGGGGAGCCGGCACCUUAUUUAUGUAAUAAAGAUCCUUUUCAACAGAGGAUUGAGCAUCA | 0.094
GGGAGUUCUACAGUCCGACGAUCCCCCAAUACCAUUUGCAGGUCUGGAACUGCACUCUCUUUUUUAAAAAACAUGUAUACAUUUUAGGGCUGUAGACUUAUUUUCCUGGUUUCUUUUCCAAUUGCUGACUUUUGAGCACAGAACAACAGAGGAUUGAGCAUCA | 2.24
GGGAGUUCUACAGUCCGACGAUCUAACCACAUCAAGAUGGUUGGAAAGCUGAAGCAGAACUUACUCUUGGCGUGUCUGGUGAUUAGUUCUGUGACCGUGUUUUACCUGGGCCAGCAUGCCAUGGAGUGCCAUCACCGAAUAGACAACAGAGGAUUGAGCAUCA | 0.256
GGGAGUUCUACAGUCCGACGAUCGAAUCCUACUCAGGCGGUCCCACAACAACCAAGCUCAAGUAGCAAUUAUCUUAGUCACAGUAGGGUAGUUUUGGGGCUCUGUGGCCAGGGUUUUAUUCACAUGCAGGUUUGGAAAAUGUACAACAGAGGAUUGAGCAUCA | 1.4
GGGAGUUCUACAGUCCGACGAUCGAUAAGAAAAGCUUGUUGGAGACCCGAUUGCAUGUCACUGGUAGAGACCUGAGGUGUCAAAUAGCUGAAACUUUCGGAUUUCAAGAAAAUUACAUCAAAAUUGUCAUAAAUAAGAAACAGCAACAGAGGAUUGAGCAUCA | 0.234
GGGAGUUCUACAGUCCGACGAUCCUCAGAGAUGUGGCAUAUCAGUAUGUGAAAAAGGGGGCUCGUAUAUUUGUGGAAGGGAAAGUGGACUAUGGCGAGUACAUGGAUAAAAACAAUGUGAGGCGACAAGCAACAACAAUCAUACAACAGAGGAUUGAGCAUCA | 0.335

Set 4
Target: Phosphate system positive regulatory protein PHO4, full length, GST-tagged (PHO4, Saccharomyces cerevisiae, UniProt P07270, residues 1-312)
Technique: competition protein-binding microarray
Molecule type: double-stranded DNA, one strand shown
Matrix: in vitro
Tested at: 2 µM
Setting: whole 60-bp probe, lowest competitor level
Added: Cbf1 competitor, 0.05 µM
Reading: higher = stronger binding
Target sequence (chain): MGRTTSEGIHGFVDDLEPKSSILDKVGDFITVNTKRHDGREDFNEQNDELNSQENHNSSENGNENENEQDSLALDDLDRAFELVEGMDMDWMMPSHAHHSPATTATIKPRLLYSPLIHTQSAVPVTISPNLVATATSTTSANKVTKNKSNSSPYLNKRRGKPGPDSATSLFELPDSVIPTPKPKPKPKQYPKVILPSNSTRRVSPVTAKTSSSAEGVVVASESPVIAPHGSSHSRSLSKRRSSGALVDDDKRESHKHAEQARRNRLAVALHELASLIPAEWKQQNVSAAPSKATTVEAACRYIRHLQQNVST
Sequence | fluorescence intensity [a.u.]
GTCTTGTCTCATTGTCACGGCACTTTCCCCACTTCAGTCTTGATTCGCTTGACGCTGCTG | 4540
CTTCTGTAAATTTTTCACGTGTTGTGAAGCGCCCCGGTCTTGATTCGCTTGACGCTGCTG | 13000
AAAGTGCCCCCCGGCGTCGTGATGGACCTGATTGGAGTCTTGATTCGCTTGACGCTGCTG | 5220
ACATTGGTCTGAAAACACGTGTAGTACTTTCTCCTTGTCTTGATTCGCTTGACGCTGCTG | 18600
CAGTCCGCCTCCCGTCACGTGATGGAGTAAGAAATTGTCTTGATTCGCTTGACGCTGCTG | 12200
TGCGCAACAACTTGTCACGTGACTTTATGTCTAGAAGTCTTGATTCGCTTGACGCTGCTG | 11800
CTAACGAAGGTTTGTCACCTAACTTACAAGCCAAGTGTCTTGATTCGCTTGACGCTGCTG | 2910
ACACTTTGGTTCTTCGACATGATAAAGTAAAACAACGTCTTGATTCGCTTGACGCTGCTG | 4420
GTTTTGCTAGGTAACCACGTTGGTCTAGAAATCGCAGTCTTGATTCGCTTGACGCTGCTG | 13200
TGTGCAGACTTCCATCACGTGAACCACAGTAACCTAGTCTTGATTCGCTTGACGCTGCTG | 12500
TGAAGCTATTACTGGCACGCATCCATATCAGCTTAGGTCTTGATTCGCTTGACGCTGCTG | 9120
TATGTACGCCTTTTCCGCGTGCGATGGTCTTTACCGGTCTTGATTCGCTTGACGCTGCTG | 8500
CAAATGGGTGGGTGGCGCGTGGCAGGGACTTCCCTAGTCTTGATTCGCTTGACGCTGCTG | 9810
AAGGACTCTAACTGGCACGTCTGGTATAGCGGACAGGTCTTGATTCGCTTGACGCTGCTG | 6070
CTAACGAAGGTTTGTGAGGTGGGTGACAAGCCAAGTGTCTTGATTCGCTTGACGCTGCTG | 3570
AAATTACTAAGTTGTCACGATACTTACCCCGTATGAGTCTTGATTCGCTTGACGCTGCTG | 5330
CGCGCCACTGCTACTCATGTGCTGCAAACTAACAGTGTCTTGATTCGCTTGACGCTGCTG | 8000
GTACTGGAATTGTATGCCAAACTTTGCCGGGAAAACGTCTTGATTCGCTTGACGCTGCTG | 3930
AAAGCGGTAATTTGAAGAGTGGGTGCAGATATCTATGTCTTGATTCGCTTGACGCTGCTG | 4400
TCAAGGCAAACGGGACATGTGGGGAGTTCGACTTTTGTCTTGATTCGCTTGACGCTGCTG | 11100
GGCAATAGGCTTTCTCTCGTGCTGTACCCCTAATGTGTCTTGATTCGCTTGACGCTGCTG | 8170
CTAACGAAGGTTTGTCACAGTACTTACAAGCCAAGTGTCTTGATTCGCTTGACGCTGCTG | 3540
CTAACGAAGGTTTGTCCGGTGGGTGACAAGCCAAGTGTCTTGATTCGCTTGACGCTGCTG | 3650
TGCGCAACAACTTGGCACGTGGGTGTATGTCTAGAAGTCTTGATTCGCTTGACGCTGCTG | 17000
TATTCCGGAAGATATCAGGTGAGAGAGAAAAGACAGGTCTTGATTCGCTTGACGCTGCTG | 4560

A few entries again (set 1):
Change | relative binding score [%]
Y141E | -2.97
A13H | 78
N85Q | 83.7
L169E | 6.43
Q7H | 80.2
Y18L | 45.6
